{"data": "Experimental data pooled from the literature", "note": "Values joined by “and” are separate records of one study, mostly repeats; a detail may differ."}
{"Structure (SMILES)": "COc1ccccc1-c1n[nH]c2nc(NC3CCN(C(=O)Cc4ccc(F)cc4F)CC3)ncc12", "test": "bead binding, competition bead pull-down, item: LINJ.08.1220", "test system": "Leishmania donovani extract", "setting": "10 µM", "scale": "relative to: vehicle", "endpoint": "relative abundance", "value": 0.96}
{"Structure (SMILES)": "CC(O)CN.O=C(O)C(Cl)Cl", "target or system": "Amaranthus retroflexus", "test": "herbicidal activity", "setting": "15 mg/mL, 21 days, post-emergence greenhouse", "endpoint": "inhibition", "value": "50%"}
{"Structure (SMILES)": "Cc1cc(C(=O)Nc2nc3cccc(C)c3n2[C@H]2CCCCN(C(=O)/C=C/CN(C)C)C2)ccn1", "target or system": "Trypanosoma brucei brucei", "test system": "2T1 wild type", "setting": "2.5 µM", "endpoint": "survival", "value": "-0.0559% and -0.0117% and -0.0654% and -0.07% and -0.0566% and -0.0212%"}
{"Structure (SMILES)": "COc1ccccc1-c1n[nH]c2nc(N[C@H]3CC[C@H](NS(=O)(=O)CC(C)C)CC3)ncc12", "test": "bead binding, competition bead pull-down, item: LMJF.36.6910", "test system": "Leishmania donovani extract", "setting": "10 µM", "scale": "relative to: vehicle", "endpoint": "relative abundance", "value": 1.33}
{"Structure (SMILES)": "CC(C)(C)C(=O)OCOP(=O)(OCOC(=O)C(C)(C)C)C1CCCN(O)C1=O (centres unmarked)", "target or system": "M14", "endpoint": "GI50", "value": "0.693 µM"}
{"Structure (SMILES)": "O=C(O)c1ccc(-c2nc(-c3ccccc3Cl)c3sccn23)cc1", "target or system": "HEL", "test": "flow cytometry", "setting": "0.1 mM", "endpoint": "CD41-positive cells", "value": "65%"}
{"Structure (SMILES)": "COc1ccccc1-c1ccncc1C(=O)Nc1nnc(OCc2ccc(Cl)cc2)s1", "target or system": "DLD-1 parental (BRCA2 WT)", "setting": "4 µM, average of 3 runs", "scale": "relative to: untreated", "endpoint": "colony survival", "value": "98.2%"}
{"Structure (SMILES)": "Cc1cc(Oc2nc(N3CC[C@@H](c4ccncc4)C3)ncc2F)[nH]n1", "target or system": "UO-31", "test": "cell proliferation", "test system": "kidney cancer", "endpoint": "IC50", "value": "41.7 µM"}
